Results from different studies.
UCHL1: Ubiquitin carboxyl-terminal hydrolase isozyme L1 (UCHL1, Homo sapiens, UniProt P09936)
Chain of UniProt P09936 (whole entry, looked up): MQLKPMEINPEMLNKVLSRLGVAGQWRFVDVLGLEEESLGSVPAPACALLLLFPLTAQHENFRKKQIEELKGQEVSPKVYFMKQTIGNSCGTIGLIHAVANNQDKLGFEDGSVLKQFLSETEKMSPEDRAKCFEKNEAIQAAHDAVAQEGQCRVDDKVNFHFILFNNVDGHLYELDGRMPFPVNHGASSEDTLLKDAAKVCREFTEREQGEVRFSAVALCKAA

Cc1nc(-c2cnc(NC(C)C)n(C)c2=O)ccc1Oc1ccnc(-c2cnn(C)c2)c1
Tmax (Beagle dog, male, plasma; intravenous, 1 mg/kg): 0.14 h

CCOc1c([C@H](C)n2nc(C)c3c(N)ncnc32)cc(Cl)c(F)c1[C@@H]1CNC(=O)C1
Tmax (patients with indolent lymphoma, plasma; oral, 20 mg, day 15, monotherapy): 0.5 h

O=C(CCl)NC(=O)NCCc1cccs1
labelling (UCHL1; covalent, intact protein LC-MS; 12.5 µM): 44.8%

Cl.[2H]C([2H])([2H])CC(=O)c1cnc(NC(=O)C2CC2)cc1Nc1cccc(-c2ncn(C([2H])([2H])[2H])n2)c1OC
Tmax (median; human; oral, 10 mg once daily, day 7, fasted, liquid, multiple dose): 1.57 h

COc1ccc(C[C@@H](C)[C@@H](C)Cc2ccc(OC)c(OC)c2)cc1OC
Tmax (beagle dog female, plasma; oral, 1000 mg/kg/day, day 1, median): 1 h

Cn1c(C(F)(F)F)cc(=O)n(-c2cc(Oc3cccnc3OCC(=O)O)c(Cl)cc2F)c1=O
Tmax (beagle dog, female, plasma; oral capsule, 100 mg/kg/day epyrifenacil, week 13, 90-day study): 3.5 h

CCn1cc(C(=O)N2CCOCC2)c(=O)c2cc(NC3Cc4ccccc4C3)cnc21
Tmax (human, fed; oral suspension, 2000 mg/day twice daily, day 8, median): 3 h

N#CC(=Cc1cc(F)ccc1F)C(=O)Nc1cc(Cl)ccc1Cl
labelling (UCHL1; covalent, intact protein LC-MS; 12.5 µM): 17.2%

CCCCC1=NC2(CCCC2)C(=O)N1Cc1ccc(-c2ccccc2S(=O)(=O)Nc2noc(C)c2C)c(COCC)c1
Tmax (healthy adult volunteers, plasma; oral, 800 mg, single dose, fasted, crushed tablet): 4.25 h

C=CCn1c(=O)c2cnc(Nc3ccc(N4CCN(C)CC4)cc3)nc2n1-c1cccc(C(C)(C)O)n1
Tmax (human, plasma; oral, 125 mg twice daily, -5-day lead-in, monotherapy lead-in): 2.1 h

CC1CC(C)CN(CCOCCSc2ccccc2)C1 (stereo not drawn)
inhibition (Trypanosoma cruzi; reporter translation, Renilla luciferase mRNA translation; cell-free extract; 40 µM; reference: DMSO): -9.1%

CCN1CCN(Cc2ccc(Nc3ncc(F)c(-c4cc(F)c5nc6n(c5c4)[C@H](C)CCC6)n3)nc2)CC1
Tmax (human, plasma; 400 mg multiple dosing, median): 6.97 h

Repeated from above:
CCCCC1=NC2(CCCC2)C(=O)N1Cc1ccc(-c2ccccc2S(=O)(=O)Nc2noc(C)c2C)c(COCC)c1
Tmax (healthy adult volunteers, plasma; oral, 800 mg, single dose, fasted, crushed tablet): 4.25 h
